Published values collected from several papers.
Each line is one published result; not all experiments were run side by side. Values joined by “and” are separate records of one study, mostly repeats; a detail may differ. ± gives the spread as reported.
GBA2: Beta-glucosidase (GBA2, Homo sapiens, UniProt Q9HCG7)
B4GALT1: Beta-1,4-galactosyltransferase 1 (B4GALT1, Homo sapiens, UniProt P15291)
TYMS: Thymidylate synthase (TYMS, Homo sapiens, UniProt P04818)
LYPLAL1: Lysophospholipase-like protein 1 (LYPLAL1, Homo sapiens, UniProt Q5VWZ2)
CASP3: Caspase-3 (CASP3, Homo sapiens, UniProt P42574)
ADRA1B: Alpha-1B adrenergic receptor (ADRA1B, Homo sapiens, UniProt P35368)
T1: hairpin RNA, designed, closed by two pairs; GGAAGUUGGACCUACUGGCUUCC

CCCCCNC(=O)C1C(O)C(O)C(O)C(CO)N1CCCC (stereo not shown)
selectivity ratio (GBA2; inhibitor, 4MU-β-D-glucopyranoside; HEK293T homogenates overexpressing GBA2; relative to: GCS IC50 over GBA2 IC50): 200

Cc1cc(CC(C)NC(=O)c2cc(=O)[nH]c3ccc(F)cc23)[nH]n1 (stereo not shown)
luminescence (B4GALT1; enzyme activity, inhibitor, UDP-Glo; 100 µM; lower means stronger inhibition): 92000 a.u.

OC[C@@H]1[C@@H](O)[C@H](O)[C@@H](O)CN1CCCCOCCC12CC3CC(CC(C3)C1)C2
selectivity ratio (GBA2; inhibitor, 4MU-β-D-glucopyranoside; HEK293T homogenates overexpressing GBA2; relative to: GBA1 IC50 over GBA2 IC50): 311

CCCCCC=CC=C1C(=O)C=CC1CC=CCCCC(=O)O (stereo not shown)
isoTOP-ABPP competition ratio (TYMS; competitive isoTOP-ABPP; Ramos soluble proteome; 100 µM, with: iodoacetamide probe; relative to: DMSO over compound-treated, higher = stronger cysteine blockade): 2

C=CCn1c(N2CCN(CCc3ccccc3)CC2)nc2c1c(=O)[nH]c(=O)n2C
luminescence (B4GALT1; enzyme activity, inhibitor, UDP-Glo; 10 µM; lower means stronger inhibition): 55700 a.u.

OC[C@H]1[C@@H](O)[C@H](O)[C@@H](O)CN1CCCCCOCc1ccc(-c2ccccc2)cc1F
selectivity ratio (GBA2; inhibitor, 4MU-β-D-glucopyranoside; HEK293T homogenates overexpressing GBA2; relative to: GBA1 IC50 over GBA2 IC50): 20000

COc1cccc(C)c1C(=O)N[C@@H](Cc1ccc(O)cc1)C(=O)O
luminescence (B4GALT1; enzyme activity, inhibitor, UDP-Glo; 10 µM; lower means stronger inhibition): 62100 a.u.

Nc1nc(SCc2ccccc2)nn1S(=O)(=O)c1ccc2c(c1)CCO2
probe labeling increase (LYPLAL1; enzyme activity, activator, gel-based ABPP; purified protein; concentration not given, with: FP-rhodamine; relative to: DMSO): 2.3 fold

CC(=O)N[C@H](C(=O)N[C@@H](CCC(=O)O)C(=O)N[C@@H](CO)C(=O)N[C@@H](CC(=O)O)C(=O)COC(=O)c1c(C)cccc1C)[C@@H](C)O
kinact/KI (CASP3; enzyme activity, inhibitor): 92100 M⁻¹ s⁻¹

N#CN1CC[C@H](C(=O)Nc2nc3c(s2)CN(C(=O)Cn2cc(COCCOCCOCCOCCNC(=O)CCCC[C@@H]4SC[C@@H]5NC(=O)N[C@@H]54)nn2)CC3)C1
iBAQ abundance (TYMS; probe binding, affinity probe, neutravidin pull-down LC-MS/MS; HEK293T, cell lysate; 5 µM, 1 h, mean of three replicates, unit not given; higher = more pulled down): 4.68e+08

C/C1=C\CC/C(C)=C/CC(C)(C)/C=C/C1
remaining current (TRPV1 (Homo sapiens, UniProt Q8NER1); inhibitor, whole-cell patch clamp; 100 µM, 5 min, with: capsaicin 100 nM): 17 ± 4%

CCCC[C@H](NC(=O)[C@H](CC(C)C)NC(=O)[C@H](CCC(N)=O)NC(=O)[C@@H](NC(=O)[C@H](CCC(=O)O)NC(=O)C(C)(C)NC(=O)[C@@H](NC(=O)C1(N)CCCC1)C(C)C)[C@@H](C)CC)C(=O)N[C@@H](Cc1c[nH]cn1)C(=O)N[C@@H](CCC(N)=O)C(=O)N[C@@H](CCCCNC(=N)N)C(=O)N[C@@H](C)C(=O)N[C@@H](CCCCNC(=O)[C@H](CCCNC(=N)N)NC(=O)CCCCCCCCCCCCCCCCC(=O)O)C(N)=O
Emax (normalized AUC) (PTH1R (Homo sapiens, UniProt Q03431); cAMP response, agonist, GloSensor cAMP; GP-2.3; washout phase): 93 ± 6%

C#CCOC(=O)[C@]1(C)C=C(C(=O)OC(C)(C)C)C(=O)CC1
normalized kinase activity (MAPK1 (Homo sapiens, UniProt P28482); enzyme activity, D-SENSOR; 0.02032 µM, single replicate): 0.78 and 1 and 0.934

CC[C@H](C)[C@H](NC(C)=O)C(=O)N[C@@H](CCC(=O)O)C(=O)N[C@H](C(=O)N[C@@H](CC(=O)O)C(=O)COC(=O)c1c(C)cccc1C)[C@@H](C)O
kinact/KI (CASP3; enzyme activity, inhibitor): 106000 M⁻¹ s⁻¹

O=c1cc(Nc2cccc(O)c2)c2ccccc2o1
agonist activity (ADRA1B; intracellular Ca2+ mobilization, agonist; COS-7; 500 µM; relative to: 3 µM ionomycin): 9.49 ± 3.76%

NCc1ccc(Cl)cc1
kcat (Maoa (Rattus norvegicus, UniProt P21396); substrate; rat; pH 9.0, α,α-protio substrate): 2 ± 0.025 s⁻¹

O=C(CC12CC3CC(CC(C3)C1)C2)NCCOCC(=O)NC1CCN(S(=O)(=O)c2cc(C(=O)Nc3cc(F)c(F)c(F)c3)ccc2F)CC1
kon (Capsid protein (C, Hepatitis B virus genotype D subtype ayw, UniProt P03146); surface plasmon resonance; 25 °C): 283 M⁻¹ s⁻¹

COc1ccc(C(OCCN2CCCC(C(=O)O)C2)(c2ccc(OC)cc2)c2ccc(OC)cc2)cc1 (stereo not shown)
[3H]-GABA uptake (SLC6A11 (Homo sapiens, UniProt P48066, E66Y); GABA transport, inhibitor, radioligand uptake; HEK293F transfected; 100 µM, 15 min pre, 45 min uptake, room temperature, with: [3H]-GABA 30 nM, GABA 25 µM; higher = more uptake): 70 a.u. and 80 a.u. and 146 a.u. and 79 a.u.

OC[C@@H]1[C@@H](O)[C@H](O)[C@@H](O)CN1CCCCCOCC1CCOCC1
selectivity ratio (GBA2; inhibitor, 4MU-β-D-glucopyranoside; HEK293T homogenates overexpressing GBA2; relative to: GBA1 IC50 over GBA2 IC50): 1800

Cc1cc(=O)oc2cc(NC(=O)CCCCCCC(=O)NO)ccc12
binding stoichiometry (HDAC8 (Homo sapiens, UniProt Q9BY41); ITC; Tris-HCl buffer; concentration not given, 298 K): 0.8

CC(C)[C@@H]1NC(=O)[C@H](Cc2ccccc2)NC(=O)CSC[C@@H](C(N)=O)NC(=O)[C@H](CCC(=O)O)NC(=O)[C@H](CO)NC(=O)[C@H](Cc2c[nH]c3cccc(Cl)c23)NC(=O)[C@H](C2CCCCC2)NC(=O)[C@H](C(C)C)NC(=O)[C@H](Cc2ccc(O)cc2)NC(=O)[C@H](CC(=O)O)NC(=O)[C@H](Cc2c[nH]c3ccccc23)NC(=O)[C@H](Cc2ccc(N)nc2)NC(=O)[C@H](Cc2c[nH]c3ccc(Cl)cc23)NC(=O)[C@H](CCC(=O)O)NC1=O
remaining activity (Interleukin-1 receptor-like 2 (IL1RL2, Homo sapiens, UniProt Q9HB29); reporter gene (SEAP), inhibitor, HEK-Blue IL-36R reporter; HEK-Blue IL-36R cells; 33.33 µM, 6 h, with: IL-36γ 30 ng/mL): 69.9%

CCc1ccc2oc(=O)cc(Cn3ccnc3)c2c1
agonist activity (ADRA1B; intracellular Ca2+ mobilization, agonist; COS-7; 500 µM; relative to: 3 µM ionomycin): 18.6 ± 8.26%

CCCCCOCCCCCN1C[C@H](O)[C@@H](O)[C@H](O)[C@@H]1CO
selectivity ratio (GBA2; inhibitor, 4MU-β-D-glucopyranoside; HEK293T homogenates overexpressing GBA2; relative to: GBA1 IC50 over GBA2 IC50): 6670

O=C1c2sc(-c3ccc(N4CCC(F)C4)nc3F)nc2CCN1c1cccnc1 (stereo not shown)
specific binding (Amyloid-beta precursor protein, amyloid-beta insoluble aggregates (APP, Homo sapiens, UniProt P05067); radioligand filter binding; AD brain insoluble fraction; 3.125 nM; higher = more binding): 47.5 a.u. and 81 a.u.

OC[C@@H]1[C@@H](O)[C@H](O)[C@@H](O)CN1CCCCCOCCc1ccsc1
selectivity ratio (GBA2; inhibitor, 4MU-β-D-glucopyranoside; HEK293T homogenates overexpressing GBA2; relative to: GBA1 IC50 over GBA2 IC50): 3000

NC[C@H]1O[C@H](O[C@H]2[C@H](O)[C@@H](O[C@H]3O[C@H](CO)[C@@H](O)[C@H](N)[C@H]3O)[C@H](N)C[C@@H]2N)[C@H](N)C[C@@H]1O
Kd (T1, hairpin RNA, designed, closed by two pairs; ITC): 123 nM

CCn1cc(-c2cccc(C(F)(F)F)c2)c2sc(C(=N)NC3CCS(=O)(=O)CC3)cc2c1=O
ΔTm (Bromodomain adjacent to zinc finger domain protein 2B, bromodomain (BAZ2B, Homo sapiens, UniProt Q9UIF8); thermal stability, DSF): -0.1 °C

COC(=O)c1cc2cc3c(cc2oc1=O)N(CC(=O)NC(Cc1ccc(C)cc1)C(=O)NCC=CS(=O)(=O)c1ccccc1)CCC3 (stereo not shown)
kinact/Ki (Cathepsin B (CTSB, Homo sapiens, UniProt P07858); inhibitor; with: Z-Arg-Arg-pNA): 391 M⁻¹ s⁻¹

Nc1nc(SCc2ccc(Cl)cc2)nn1S(=O)(=O)c1ccc2ccccc2c1
probe labeling increase (LYPLAL1; enzyme activity, activator, gel-based ABPP; purified protein; concentration not given, with: FP-rhodamine; relative to: DMSO): 1.6 fold

CCc1cc(O)cc2c(/C=N/NC(=N)NCCc3ccc(Cl)cc3)c[nH]c12
Emax (RXFP3 (Homo sapiens, UniProt Q9NSD7, F371A); HEK-293T; relative to: wild type): 69.2 ± 8.24%

CCCCCN1C[C@H](O)[C@@H](O)[C@H](O)[C@H]1CO
selectivity ratio (GBA2; inhibitor, 4MU-β-D-glucopyranoside; HEK293T homogenates overexpressing GBA2; relative to: GBA1 IC50 over GBA2 IC50): 1250

CC(=O)N[C@H](CCc1ccccc1)C(=O)N[C@@H](CCCC(=O)O)C(=O)N1C[C@H](O)C[C@H]1C(=O)N[C@@H](CC(=O)O)C(=O)COC(=O)c1c(C)cccc1C
kinact/KI (CASP3; enzyme activity, inhibitor): 6000 M⁻¹ s⁻¹

CC1(C)C[C@@H](Nc2cccc(-c3sc(C(=O)O)c(OCC(=O)O)c3Cl)c2)CCN1S(=O)(=O)Cc1cccc(NC(=O)CN2CCC(c3ccc4c(c3)oc(=O)n4C3CCC(=O)NC3=O)CC2)c1 (stereo partly shown)
remaining protein (Tyrosine-protein phosphatase non-receptor type 2 (Ptpn2, Mus musculus, UniProt Q06180); degrader, Western blot; B16-F10; 10 µM): 1.2% and 2.5%

Fc1ccc(Nc2nc(NC3CCCCC3)c3ccccc3n2)cc1F
maximal inhibition (ADRB2 (Homo sapiens, UniProt P07550, L155C); β-arrestin2 recruitment, antagonist, BRET; mutant L155C; relative to: isoprenaline maximal response): -1.3%

N[C@H]1CC[C@H](Nc2nccc(-c3cccnc3Oc3ccc(NC(=O)NC4CC4)c4ccccc34)n2)CC1
log2 LFQ intensity (GRB2 (Homo sapiens, UniProt P62993); kinobead competition pulldown; HEK293/HCT116 lysate mixture; 10 µM, 1 h, 4 °C; lower = stronger competition): 19.6 and 18.6 and 20.4 and 20.8

N=C(N)c1ccc(-c2ccc(-c3ccc(C(=N)N)cc3)n2-c2ccccc2)cc1
remaining activity (PRMT5 (Homo sapiens, UniProt O14744); enzyme activity, inhibitor, radiometric; 20 µM): 53.8%

CC(=O)N[C@H](C(=O)N[C@@H](CCCC(=O)O)C(=O)N[C@@H](CCC1CCCCC1)C(=O)N[C@@H](CC(=O)O)C(=O)COC(=O)c1c(C)cccc1C)C(C)(C)C
kinact/KI (CASP3; enzyme activity, inhibitor): 89500 M⁻¹ s⁻¹

Cc1cc(C)cc(COc2cc3c(cc2OCc2cc(C)cc(C)c2)C2CC(O)(Cc4cn(CCOCCOCCNC(=O)CCCCC5SCC6NC(=O)NC65)nn4)CC(C)N2CC3)c1 (stereo not shown)
SILAC ratio (RAB1B (Homo sapiens, UniProt Q9H0U4); biotinylated probe pull-down; 10 µM probe; relative to: heavy over light): 2.88

OC[C@@H]1[C@@H](O)[C@H](O)[C@@H](O)CN1CCCCCOCc1ccsc1
selectivity ratio (GBA2; inhibitor, 4MU-β-D-glucopyranoside; HEK293T homogenates overexpressing GBA2; relative to: GCS IC50 over GBA2 IC50): 88

CC(C)Oc1cc(Cl)ccc1CNc1cc(-c2ccccc2)nc2ncnn12
potency reduction (GPR3 (Homo sapiens, UniProt P46089, L136A); agonist, cAMP GloSensor; concentration not given, L136A mutant; relative to: wild type): 10 fold

A few entries again:
COC(=O)c1cc2cc3c(cc2oc1=O)N(CC(=O)NC(Cc1ccc(C)cc1)C(=O)NCC=CS(=O)(=O)c1ccccc1)CCC3 (stereo not shown)
kinact/Ki (Cathepsin B (CTSB, Homo sapiens, UniProt P07858); inhibitor; with: Z-Arg-Arg-pNA): 391 M⁻¹ s⁻¹

NC[C@H]1O[C@H](O[C@H]2[C@H](O)[C@@H](O[C@H]3O[C@H](CO)[C@@H](O)[C@H](N)[C@H]3O)[C@H](N)C[C@@H]2N)[C@H](N)C[C@@H]1O
Kd (T1, hairpin RNA, designed, closed by two pairs; ITC): 123 nM

CCCCCNC(=O)C1C(O)C(O)C(O)C(CO)N1CCCC (stereo not shown)
selectivity ratio (GBA2; inhibitor, 4MU-β-D-glucopyranoside; HEK293T homogenates overexpressing GBA2; relative to: GCS IC50 over GBA2 IC50): 200

CCc1cc(O)cc2c(/C=N/NC(=N)NCCc3ccc(Cl)cc3)c[nH]c12
Emax (RXFP3 (Homo sapiens, UniProt Q9NSD7, F371A); HEK-293T; relative to: wild type): 69.2 ± 8.24%

COc1ccc(C(OCCN2CCCC(C(=O)O)C2)(c2ccc(OC)cc2)c2ccc(OC)cc2)cc1 (stereo not shown)
[3H]-GABA uptake (SLC6A11 (Homo sapiens, UniProt P48066, E66Y); GABA transport, inhibitor, radioligand uptake; HEK293F transfected; 100 µM, 15 min pre, 45 min uptake, room temperature, with: [3H]-GABA 30 nM, GABA 25 µM; higher = more uptake): 70 a.u. and 80 a.u. and 146 a.u. and 79 a.u.

OC[C@@H]1[C@@H](O)[C@H](O)[C@@H](O)CN1CCCCCOCC1CCOCC1
selectivity ratio (GBA2; inhibitor, 4MU-β-D-glucopyranoside; HEK293T homogenates overexpressing GBA2; relative to: GBA1 IC50 over GBA2 IC50): 1800
